Published values from different studies.
± gives the spread as reported.
Route: intravenous

For `CCCC[C@H](NC(=O)CNC(=O)CNC(=O)CN1CCN(CC(=O)O)CCN(CC(=O)O)CCN(CC(=O)O)CC1)C(=O)N[C@H]1CC(=O)NCCCC[C@@H](C(N)=O)NC(=O)[C@H](Cc2c[nH]c3ccccc23)NC(=O)[C@H](CCCNC(=N)N)NC(=O)[C@@H](Cc2ccccc2)NC(=O)[C@H](Cc2c[nH]cn2)NC1=O` [copper-64 labelled], the tissue uptake was 10.3 ± 1.18 %ID/g (female C57 mice, B16/F1 melanoma, liver; 0.037 MBq, 2 h).
For `CC(F)C(=O)NC[C@@H]1O[C@H](C(=O)NCCCC[C@@H]2NC(=O)[C@@H](Cc3ccccc3)NC(=O)[C@H](CC(=O)O)NC(=O)CNC(=O)[C@H](CCCNC(=N)N)NC2=O)[C@H](O)[C@H](O)[C@H]1O` (stereo partly shown) [fluorine-18 labelled], the tissue uptake was 0.71 ± 0.04 %ID/g (small-animal PET; female athymic nude mice, U-87 MG xenograft, kidney; 3.7 MBq, 120 min).
The tissue uptake of `N=C(N)NCCC[C@H](NC(=O)[C@@H]1CSSC[C@H](NC(=O)[C@H](Cc2ccc3ccccc3c2)NC(=O)[C@H](CCCNC(=N)N)NC(=O)[C@H](CCCNC(=N)N)NC(=O)CN2CCN(CC(=O)O)CCN(CC(=O)O)CCN(CC(=O)O)CC2)C(=O)N[C@@H](Cc2ccc(O)cc2)C(=O)N[C@@H](CCCNC(N)=O)C(=O)N[C@@H](CCCCN)C(=O)N[C@H](CCCCN)C(=O)N2CCC[C@H]2C(=O)N[C@@H](Cc2ccc(O)cc2)C(=O)N[C@@H](CCCNC(=N)N)C(=O)N[C@@H](CCCNC(N)=O)C(=O)N1)C(N)=O` [copper-64 labelled] is reported as 4.98 ± 0.89 %ID/g (female athymic nude mice, CHO-CXCR4 tumour xenograft; 50 µCi, 4 h).
For `CCCC[C@@H]1NC(=O)[C@@H](NC(=O)[C@H](CCC(=O)O)NC(=O)CNC(=O)CN2CCN(CC(=O)O)CCN(CC(=O)O)CCN(CC(=O)O)CC2)CCCCNC(=O)C[C@@H](C(N)=O)NC(=O)[C@H](C(C)C)NC(=O)[C@@H]2CCCN2C(=O)[C@H](CCCNC(=N)N)NC(=O)CNC(=O)[C@H](Cc2c[nH]c3ccccc23)NC(=O)[C@H](CCCNC(=N)N)NC(=O)[C@@H](Cc2ccccc2)NC(=O)[C@H](Cc2c[nH]cn2)NC(=O)[C@H](CCC(=O)O)NC1=O` [gallium-67 labelled], the tissue uptake was 1.62 ± 0.54 %ID/g (C57 mice, B16/F1 flank melanoma, skin; 0.037 MBq/mouse, 0.5 h).
`CCCC[C@H](NC(=O)CNC(=O)CNC(=O)CN1CCN(CC(=O)O)CCN(CC(=O)O)CCN(CC(=O)O)CC1)C(=O)N[C@H]1CC(=O)NCCCC[C@@H](C(N)=O)NC(=O)[C@H](Cc2c[nH]c3ccccc23)NC(=O)[C@H](CCCNC(=N)N)NC(=O)[C@@H](Cc2ccccc2)NC(=O)[C@H](Cc2c[nH]cn2)NC1=O` [gallium-67 labelled] gave a tissue uptake of 5.31 ± 2.35 %ID/g (female C57 mice, B16/F1 melanoma, skin; 0.037 MBq, 0.5 h).
For `CCCC[C@H](NC(=O)CN1CCC(NC(=O)CN2CCN(CC(=O)O)CCN(CC(=O)O)CCN(CC(=O)O)CC2)CC1)C(=O)N[C@H]1CC(=O)NCCCC[C@@H](C(N)=O)NC(=O)[C@H](Cc2c[nH]c3ccccc23)NC(=O)[C@H](CCCNC(=N)N)NC(=O)[C@@H](Cc2ccccc2)NC(=O)[C@H](Cc2c[nH]cn2)NC1=O` [gallium-68 labelled], the tissue uptake was 1 ± 0.5 %ID/g (male C57BL/6J mice, B16-F10 tumours, heart; 1 h, blocking study, with: 100 µg non-radioactive Ga-peptide).
With `O=C([O-])CN1CCN(CC(=O)[O-])CCN(CC(=O)[O-])CCN(CC(=O)[O-])CC1.[64Cu+2]` the tissue uptake was 1.17 %ID/g (athymic nude mice, femur; 0.25 h, with: 64Cu).
The tissue uptake of `CC(F)C(=O)NC[C@@H]1O[C@H](C(=O)N[C@@H](CCC(=O)NCCCC[C@@H]2NC(=O)[C@@H](Cc3ccc(O)cc3)NC(=O)[C@H](CC(=O)O)NC(=O)CNC(=O)[C@H](CCCNC(=N)N)NC2=O)C(=O)NCCCC[C@@H]2NC(=O)[C@@H](Cc3ccc(O)cc3)NC(=O)[C@H](CC(=O)O)NC(=O)CNC(=O)[C@H](CCCNC(=N)N)NC2=O)[C@H](O)[C@H](O)[C@H]1O` (stereo partly shown) [fluorine-18 labelled] is reported as 0.12 ± 0.02 %ID/g (small-animal PET; female athymic nude mice, U-87 MG xenograft, muscle; 3.7 MBq, 120 min).
`O=C([O-])CN1CCN(CC(=O)[O-])CCN(CC(=O)NC[C@H]2CC[C@H](C(=O)N[C@H](Cc3cnc4ccccc4c3)C(=O)NCCCC[C@H](NC(=O)N[C@@H](CCC(=O)O)C(=O)O)C(=O)O)CC2)CCN(CC(=O)[O-])CC1.[64Cu+2]` has a tissue uptake of 16.8 ± 3.02 %ID/g (ex vivo gamma counting; 22Rv1 tumour-bearing mice, liver; 0.74 MBq, 24 h).
For `CN1C(=O)[C@@H](Cc2ccc(O)c(I)c2)NC(=O)CNC(=O)[C@H](Cc2ccc3ccccc3c2)NC(=O)[C@H](CCCNC(=N)N)NC(=O)[C@H]1CCCNC(=O)c1ccc(CNC(=O)CN2CCN(CC(=O)O)CCN(CC(=O)O)CCN(CC(=O)O)CC2)cc1` [lutetium-177 labelled], the tissue uptake was 0.42 ± 0.06 %ID/g (refers to: 177Lu radioactivity; female CB-17 SCID mice, Daudi xenograft, lung; 0.16 nmol per mouse, 6 h).
